Measurements from different studies.
Parts stem from different laboratories: compare values within a part only.
UniProt P21127, sequence (whole entry, looked up): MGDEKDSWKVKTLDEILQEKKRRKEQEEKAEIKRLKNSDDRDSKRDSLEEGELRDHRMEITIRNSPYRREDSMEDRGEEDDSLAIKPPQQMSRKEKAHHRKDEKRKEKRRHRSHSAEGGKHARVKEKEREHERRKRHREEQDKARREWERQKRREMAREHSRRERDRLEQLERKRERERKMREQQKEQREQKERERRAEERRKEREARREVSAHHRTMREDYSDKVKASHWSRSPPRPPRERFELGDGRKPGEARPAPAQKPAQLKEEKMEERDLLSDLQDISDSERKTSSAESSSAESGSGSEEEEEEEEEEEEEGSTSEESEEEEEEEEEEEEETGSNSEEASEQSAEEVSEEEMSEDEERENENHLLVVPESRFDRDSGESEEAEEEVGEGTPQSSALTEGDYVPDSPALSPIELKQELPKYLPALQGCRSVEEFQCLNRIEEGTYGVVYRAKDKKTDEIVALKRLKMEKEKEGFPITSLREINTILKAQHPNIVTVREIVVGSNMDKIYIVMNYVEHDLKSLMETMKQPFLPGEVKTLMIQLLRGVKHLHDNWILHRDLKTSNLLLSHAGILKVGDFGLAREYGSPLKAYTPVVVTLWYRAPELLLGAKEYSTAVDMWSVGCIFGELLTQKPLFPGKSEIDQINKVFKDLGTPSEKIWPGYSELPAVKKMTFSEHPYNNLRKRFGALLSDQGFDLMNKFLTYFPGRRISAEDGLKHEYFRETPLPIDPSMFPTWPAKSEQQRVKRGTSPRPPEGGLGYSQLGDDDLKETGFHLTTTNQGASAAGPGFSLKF
UniProt Q6P2M8, sequence (whole entry, looked up): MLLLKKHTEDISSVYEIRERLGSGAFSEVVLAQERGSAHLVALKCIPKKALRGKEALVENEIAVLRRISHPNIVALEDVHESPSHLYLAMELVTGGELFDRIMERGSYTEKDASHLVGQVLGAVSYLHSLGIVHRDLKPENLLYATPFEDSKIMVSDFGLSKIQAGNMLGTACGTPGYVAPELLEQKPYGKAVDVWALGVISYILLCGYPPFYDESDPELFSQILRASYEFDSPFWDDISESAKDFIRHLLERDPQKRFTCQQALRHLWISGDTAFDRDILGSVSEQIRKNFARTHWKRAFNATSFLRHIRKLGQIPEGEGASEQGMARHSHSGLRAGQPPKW
UniProt Q8IVW4, sequence (whole entry, looked up): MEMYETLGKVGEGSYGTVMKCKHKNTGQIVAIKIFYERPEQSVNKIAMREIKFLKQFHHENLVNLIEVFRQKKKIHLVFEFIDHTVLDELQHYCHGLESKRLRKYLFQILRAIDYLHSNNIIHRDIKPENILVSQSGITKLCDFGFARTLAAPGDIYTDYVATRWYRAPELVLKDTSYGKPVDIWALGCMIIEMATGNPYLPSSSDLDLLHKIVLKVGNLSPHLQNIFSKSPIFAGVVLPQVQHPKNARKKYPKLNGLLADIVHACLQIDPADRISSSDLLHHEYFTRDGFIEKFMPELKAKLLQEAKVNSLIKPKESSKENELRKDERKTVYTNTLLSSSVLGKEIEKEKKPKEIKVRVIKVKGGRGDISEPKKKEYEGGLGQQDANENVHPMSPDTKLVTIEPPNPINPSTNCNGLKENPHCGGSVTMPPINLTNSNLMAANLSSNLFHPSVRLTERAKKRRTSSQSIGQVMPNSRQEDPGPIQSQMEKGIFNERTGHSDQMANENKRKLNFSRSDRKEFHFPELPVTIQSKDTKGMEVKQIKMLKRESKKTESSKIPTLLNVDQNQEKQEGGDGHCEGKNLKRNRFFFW
UniProt Q9Y616, sequence (whole entry, looked up): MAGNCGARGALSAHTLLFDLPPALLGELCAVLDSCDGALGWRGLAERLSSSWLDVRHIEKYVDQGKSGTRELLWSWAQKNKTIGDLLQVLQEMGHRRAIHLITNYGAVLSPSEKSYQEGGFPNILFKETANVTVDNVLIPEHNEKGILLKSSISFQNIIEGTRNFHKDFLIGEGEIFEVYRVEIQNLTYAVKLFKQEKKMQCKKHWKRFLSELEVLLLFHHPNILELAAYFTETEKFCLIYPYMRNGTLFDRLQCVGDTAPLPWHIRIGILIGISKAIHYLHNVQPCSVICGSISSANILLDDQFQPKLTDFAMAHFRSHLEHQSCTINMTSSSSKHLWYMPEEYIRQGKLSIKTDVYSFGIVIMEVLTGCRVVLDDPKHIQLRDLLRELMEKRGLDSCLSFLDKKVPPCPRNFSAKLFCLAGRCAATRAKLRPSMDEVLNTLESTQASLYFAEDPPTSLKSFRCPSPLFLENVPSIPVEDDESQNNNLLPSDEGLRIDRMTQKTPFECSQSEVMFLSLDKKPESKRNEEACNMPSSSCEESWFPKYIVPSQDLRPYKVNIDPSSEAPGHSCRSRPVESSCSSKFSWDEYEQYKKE
UniProt Q86Z02, sequence (whole entry, looked up): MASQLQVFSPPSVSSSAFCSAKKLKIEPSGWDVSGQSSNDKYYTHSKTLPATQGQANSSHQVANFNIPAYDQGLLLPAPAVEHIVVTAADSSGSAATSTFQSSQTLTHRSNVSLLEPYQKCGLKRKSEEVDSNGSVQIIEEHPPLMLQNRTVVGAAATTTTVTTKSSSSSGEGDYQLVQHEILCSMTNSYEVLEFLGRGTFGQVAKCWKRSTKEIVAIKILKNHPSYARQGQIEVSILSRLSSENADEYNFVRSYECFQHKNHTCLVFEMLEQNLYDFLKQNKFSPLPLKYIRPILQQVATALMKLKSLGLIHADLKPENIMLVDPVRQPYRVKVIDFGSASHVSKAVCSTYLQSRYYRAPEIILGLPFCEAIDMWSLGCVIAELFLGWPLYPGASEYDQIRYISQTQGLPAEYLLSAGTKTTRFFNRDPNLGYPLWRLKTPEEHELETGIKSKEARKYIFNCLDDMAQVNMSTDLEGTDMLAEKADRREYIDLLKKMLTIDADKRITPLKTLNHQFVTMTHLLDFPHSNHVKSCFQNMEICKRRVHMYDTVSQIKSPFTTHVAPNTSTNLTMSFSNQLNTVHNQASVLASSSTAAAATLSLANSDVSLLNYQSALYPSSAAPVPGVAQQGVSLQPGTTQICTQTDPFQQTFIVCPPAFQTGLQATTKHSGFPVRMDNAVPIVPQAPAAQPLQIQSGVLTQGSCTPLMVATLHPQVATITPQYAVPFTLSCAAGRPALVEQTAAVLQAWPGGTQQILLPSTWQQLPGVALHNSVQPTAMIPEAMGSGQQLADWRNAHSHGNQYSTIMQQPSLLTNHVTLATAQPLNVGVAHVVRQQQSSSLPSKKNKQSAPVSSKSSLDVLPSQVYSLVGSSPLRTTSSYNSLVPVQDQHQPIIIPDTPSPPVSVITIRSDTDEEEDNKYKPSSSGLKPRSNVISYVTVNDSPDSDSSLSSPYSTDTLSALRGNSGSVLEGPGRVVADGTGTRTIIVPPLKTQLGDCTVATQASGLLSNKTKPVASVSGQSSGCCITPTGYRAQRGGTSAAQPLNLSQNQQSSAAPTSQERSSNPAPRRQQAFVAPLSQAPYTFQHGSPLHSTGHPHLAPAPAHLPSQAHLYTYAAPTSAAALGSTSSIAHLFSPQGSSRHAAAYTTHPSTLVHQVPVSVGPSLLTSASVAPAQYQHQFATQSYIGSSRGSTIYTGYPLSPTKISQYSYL
UniProt O15197, sequence (whole entry, looked up): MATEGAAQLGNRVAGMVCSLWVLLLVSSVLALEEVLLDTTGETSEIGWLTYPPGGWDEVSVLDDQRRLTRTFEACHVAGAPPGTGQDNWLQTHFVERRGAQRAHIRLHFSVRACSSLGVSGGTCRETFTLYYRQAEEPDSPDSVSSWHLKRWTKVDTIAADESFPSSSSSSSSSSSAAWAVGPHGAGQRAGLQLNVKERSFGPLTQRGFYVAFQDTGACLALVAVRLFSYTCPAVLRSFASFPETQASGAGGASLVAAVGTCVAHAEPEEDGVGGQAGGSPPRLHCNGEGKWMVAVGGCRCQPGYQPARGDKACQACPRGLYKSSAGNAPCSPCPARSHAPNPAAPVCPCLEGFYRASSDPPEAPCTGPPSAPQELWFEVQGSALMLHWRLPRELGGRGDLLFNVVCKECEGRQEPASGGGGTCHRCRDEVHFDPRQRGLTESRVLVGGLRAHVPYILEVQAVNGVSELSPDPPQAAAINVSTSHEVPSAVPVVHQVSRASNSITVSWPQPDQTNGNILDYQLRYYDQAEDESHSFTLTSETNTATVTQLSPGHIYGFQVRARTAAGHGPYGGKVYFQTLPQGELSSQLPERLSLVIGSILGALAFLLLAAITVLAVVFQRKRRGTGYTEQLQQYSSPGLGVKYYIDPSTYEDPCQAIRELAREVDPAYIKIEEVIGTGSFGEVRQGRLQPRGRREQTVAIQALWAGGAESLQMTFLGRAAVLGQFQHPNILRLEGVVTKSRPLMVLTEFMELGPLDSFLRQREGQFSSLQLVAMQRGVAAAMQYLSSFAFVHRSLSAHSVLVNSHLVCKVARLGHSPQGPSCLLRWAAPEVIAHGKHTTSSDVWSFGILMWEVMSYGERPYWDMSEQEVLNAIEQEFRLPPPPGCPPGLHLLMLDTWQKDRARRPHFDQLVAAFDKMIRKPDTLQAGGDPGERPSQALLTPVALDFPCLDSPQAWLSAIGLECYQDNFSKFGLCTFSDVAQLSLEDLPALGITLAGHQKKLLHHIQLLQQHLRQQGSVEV
UniProt Q9NY57, sequence (whole entry, looked up): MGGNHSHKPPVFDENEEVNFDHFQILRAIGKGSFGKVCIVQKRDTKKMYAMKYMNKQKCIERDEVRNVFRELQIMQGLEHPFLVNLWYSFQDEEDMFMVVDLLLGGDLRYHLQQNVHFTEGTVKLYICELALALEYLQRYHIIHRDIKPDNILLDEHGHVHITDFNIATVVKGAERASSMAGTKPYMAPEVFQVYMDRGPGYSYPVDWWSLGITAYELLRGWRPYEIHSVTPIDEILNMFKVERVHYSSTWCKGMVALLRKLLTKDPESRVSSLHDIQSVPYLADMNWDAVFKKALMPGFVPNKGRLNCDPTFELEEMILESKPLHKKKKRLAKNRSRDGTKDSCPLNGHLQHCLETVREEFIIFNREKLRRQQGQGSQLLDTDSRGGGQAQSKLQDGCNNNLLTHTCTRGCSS

Set 1 — effect on: enzyme activity; action: inhibitor; tested at: 0.5 µM; reference: control
Target: Aurora kinase C (AURKC, Homo sapiens, UniProt Q9UQB9)
Target sequence (Q9UQB9 1-309): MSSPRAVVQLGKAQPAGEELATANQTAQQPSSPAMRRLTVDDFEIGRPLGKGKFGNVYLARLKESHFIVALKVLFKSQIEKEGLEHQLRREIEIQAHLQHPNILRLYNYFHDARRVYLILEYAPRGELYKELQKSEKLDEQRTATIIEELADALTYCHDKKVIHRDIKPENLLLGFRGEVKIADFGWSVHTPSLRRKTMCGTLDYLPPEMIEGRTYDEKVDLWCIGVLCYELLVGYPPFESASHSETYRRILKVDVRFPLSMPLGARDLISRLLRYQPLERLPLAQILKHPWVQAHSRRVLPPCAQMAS
| SMILES | remaining activity |
| --- | --- |
| Oc1ccc(-c2nc(-c3ccncc3)c(-c3ccc(F)cc3)[nH]2)cc1 | 94.2% |
| COc1cc2ncnc(Nc3ccc(F)c(Cl)c3)c2cc1OCCCN1CCOCC1 | 89.7% |
| Cc1ccc(Nc2nccc(N(C)c3ccc4c(C)n(C)nc4c3)n2)cc1S(N)(=O)=O | 70.9% |
| COc1cc2nccc(Oc3ccc(NC(=S)NC(=O)c4ccccc4C)cc3)c2cc1OC | 30.2% |
| Nc1ccc2ncnc(NCCc3ccc(Oc4ccccc4)cc3)c2c1 | 96% |
| O=S(=O)(c1cccc2cnccc12)N1CCCNCC1 | 97.4% |
| Nc1[nH]nc2nc3ccccc3nc12 | 90.8% |
| C#Cc1cccc(Nc2ncnc3cc(OCCOC)c(OCCOC)cc23)c1 | 88.2% |
| CO[C@H]1C[C@@H]2CC[C@@H](C)[C@@](O)(O2)C(=O)C(=O)N2CCCC[C@H]2C(=O)O[C@H]([C@H](C)C[C@@H]2CC[C@@H](O)[C@H](OC)C2)CC(=O)[C@H](C)/C=C(\C)[C@@H](O)[C@@H](OC)C(=O)[C@H](C)C[C@H](C)/C=C/C=C/C=C/1C | 95.6% |
| O=C1NC(=O)C(c2cn(CCCn3ccnc3)c3ccccc23)=C1Nc1ccccc1 | 89.8% |
| O=C(CCCc1ccc(-c2ccccc2F)cc1)Nc1ccc(O)cc1 | 95.4% |
| O=C(O)c1ccc2c3c1cccc3c(=O)n1c3ccccc3nc21 | 88% |
| Cc1ccc(NC(=O)c2ccc(CN3CCN(C)CC3)cc2)cc1Nc1nc(-c2cccnc2)cs1 | 112% |
| COc1ccc(OC)c2c(=S)c3ccccc3[nH]c12 | 88.2% |
| Nc1ncnc2n[nH]c(Nc3ccc(F)cc3)c12 | 96% |

Set 2 — technique: competition with immobilised ligand; tested at: 1 µM
SMILES: O=C(N[C@H]1CCCCC/C=C\C2C[C@@]2(C(=O)O)NC(=O)[C@@H]2C[C@@H](Oc3ccncc3)CN2C1=O)OC1CCCC1 (stereo partly shown)
| target | effect on | remaining binding [%] |
| --- | --- | --- |
| EPHB6 (Homo sapiens, UniProt O15197) | cell-free assay | 89 |
| MAPK15 (Homo sapiens, UniProt Q8TD08) | binding | 100 |
| FES (Homo sapiens, UniProt P07332) | cell-free assay | 100 |
| PNCK (Homo sapiens, UniProt Q6P2M8) | cell-free assay | 99 |
| BTK (Homo sapiens, UniProt Q06187) | binding | 100 |
| SRPK1 (Homo sapiens, UniProt Q96SB4) | binding | 91 |
| CDKL3 (Homo sapiens, UniProt Q8IVW4) | binding | 99 |
| NUAK2 (Homo sapiens, UniProt Q9H093) | binding | 100 |
| PRKACB (Homo sapiens, UniProt P22694) | binding | 100 |
| MAK (Homo sapiens, UniProt P20794) | binding | 82 |
| FLT3 (Homo sapiens, UniProt P36888) | binding | 93 |
| HIPK1 (Homo sapiens, UniProt Q86Z02) | binding | 86 |
| SYK (Homo sapiens, UniProt P43405) | cell-free assay | 100 |
| PLK4 (Homo sapiens, UniProt O00444) | binding | 88 |
| EPHA2 (Homo sapiens, UniProt P29317) | cell-free assay | 71 |
| CDK11B (Homo sapiens, UniProt P21127) | cell-free assay | 100 |
| MAP2K1 (Homo sapiens, UniProt Q02750) | binding | 92 |
| IRAK3 (Homo sapiens, UniProt Q9Y616) | binding | 72 |
| CDK16 (Homo sapiens, UniProt Q00536) | binding | 83 |
| CSF1R (Homo sapiens, UniProt P07333) | cell-free assay | 95 |
| STK32B (Homo sapiens, UniProt Q9NY57) | binding | 99 |

Set 3 — technique: aptamer microarray, sandwich; form: DNA with 2'F-ANA; matrix: in vitro; tested at: 200 nM; together with: Cy3 exosite-II aptamer, 400 nM; direction: higher = stronger binding; sequence: GGTTGGTGTGGTTGG
Target: Prothrombin, mature alpha-thrombin (F2, Homo sapiens, UniProt P00734)
Setting: whole 15-mer aptamer, many near background
| Modification | mean fluorescence intensity [a.u.] |
| --- | --- |
| 2'F-ANA at 4 6 8 9 12 14 15 | 102 |
| 2'F-ANA at 2 4 7 8 9 12 | 683 |
| 2'F-ANA at 1 3 6 7 10 12 13 | 98.4 |
| 2'F-ANA at 3 4 7 8 10 12 | 455 |
| 2'F-ANA at 1 2 3 4 7 8 9 10 11 12 15 | 90.7 |
| 2'F-ANA at 1 2 3 4 11 12 13 14 | 68.6 |
| 2'F-ANA at 2 3 7 8 10 11 12 13 | 462 |
| 2'F-ANA at 2 3 6 8 9 10 12 13 14 | 266 |

Set 4 — technique: RNA Bind-n-Seq; form: RNA; matrix: in vitro; tested at: 365 nM; reference: no-protein control; direction: higher = stronger binding
Target: RNA binding protein fox-1 homolog 2, RRM domain, GST-SBP tag (RBFOX2, Homo sapiens, UniProt O43251-10, residues 100-194)
Setting: natural RNA segment, single round, ends assumed
All sequences stand within: GGGAGUUCUACAGUCCGACGAUC … UGGAAUUCUCGGGUGCCAA
| Sequence | RBNS enrichment (R) |
| --- | --- |
| GACAAUAGGAAGAGAUGUCAUCUCUGCUCUCCCUGUAAAUGUUAGUUGAACUAAGUUAUGGAUUUGUGGUCUUUCAAAUACAUGACGCCUUUAGUAUGCCACACUGAAAU | 0.766 |
| CAAGAUUUUCUUACCUCUCAGUUGUUGAAACACUUUGCUUCUUAAAAUUGAUAUGUUGAAACUUUAAUUCUUUUAUCAAUCCCAGCAUUUUGAGAUCAGUCUUUAUUAAU | 0.483 |
| AUUUGUAAGCAUCCCCCAAAUUAUUCUGAAGGUUUUUUGAUGAUGGAGGUAUGAUAGGUUUAUCACACAGCCUAAGGCAGAUUUUGUUUUGUCUGUACUGACUCUAUCUG | 0.454 |
| GCCCAAACAGAUGUUCUGGGUGCGAGCCCGGGGCUAUAUUGGCGAGGGCGACAUGAAGAUGCACUGCUGCGUGGCCGCCUAUAUCUCCGACUAUGCCUUCUUGGGCACUG | 0.405 |
| AUUUAAGUUUUCAGAGGUAAGUCUGUUGUUCUGAUUAAUCUGCAUUCAUUCAGCGAAUGCUCAAGACAAGCCAGGCAUGCUGAGAAGCGGCGCUCUAGUUGUAUGUAAGA | 0.536 |
| GCGGAUGUGGGGGCGGCCAUCUGGUAGUGGAAAGCUGUAGCGAUCUGAGUACAGCUUAGAUGUUAGCUGGAGAGGAAGAUGGUGUGGCAGGUCUCUGGUCUCCCUACCCC | 0.823 |
| CCCUUGCAGCAAGCACUACAAUGUAUGUGAUCGUCAAUGUGAAUAGCUUAGAAUACUGCAAAGGAUAAGCUAAUUGAAUGCCUUGAAAGUAUUAUCCACUGGUCAGAUGG | 0.775 |
| UACUACAUCGCCCUCCACAUCCCUGAUUCCUGUUGUUAUGGAAACUGUUGCCAGAGAUGGAGGUUCUCUCGGAGUAUCUGGGAACUGUGCCUUUGAGUUUCCUCAGGCUG | 0.411 |

Repeated from above (set 2):
| target | effect on | remaining binding [%] |
| --- | --- | --- |
| PLK4 (Homo sapiens, UniProt O00444) | binding | 88 |
| EPHA2 (Homo sapiens, UniProt P29317) | cell-free assay | 71 |
| CDK11B (Homo sapiens, UniProt P21127) | cell-free assay | 100 |
